Results gathered from unrelated publications.
Every numbered part comes from another study and shows a few of its results, in no order. Substitutions count along the parent as printed.
UniProt P62837, sequence (whole entry, looked up): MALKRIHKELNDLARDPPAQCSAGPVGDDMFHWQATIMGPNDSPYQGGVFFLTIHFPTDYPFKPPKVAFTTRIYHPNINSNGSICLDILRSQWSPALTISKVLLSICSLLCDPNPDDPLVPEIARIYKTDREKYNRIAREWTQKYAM
UniProt Q712K3, sequence (whole entry, looked up): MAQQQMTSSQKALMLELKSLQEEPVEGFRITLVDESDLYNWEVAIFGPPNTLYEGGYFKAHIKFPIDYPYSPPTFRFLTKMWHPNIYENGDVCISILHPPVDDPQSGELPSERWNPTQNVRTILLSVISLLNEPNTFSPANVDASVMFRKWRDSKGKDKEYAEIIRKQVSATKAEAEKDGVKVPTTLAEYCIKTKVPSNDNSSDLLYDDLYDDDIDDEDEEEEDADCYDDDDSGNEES
UniProt O00762, sequence (whole entry, looked up): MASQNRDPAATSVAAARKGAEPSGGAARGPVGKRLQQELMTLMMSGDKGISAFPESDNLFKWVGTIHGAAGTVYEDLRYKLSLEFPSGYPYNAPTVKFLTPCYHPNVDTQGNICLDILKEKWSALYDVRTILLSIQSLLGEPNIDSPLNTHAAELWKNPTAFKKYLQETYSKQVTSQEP
UniProt Q9H832, sequence (whole entry, looked up): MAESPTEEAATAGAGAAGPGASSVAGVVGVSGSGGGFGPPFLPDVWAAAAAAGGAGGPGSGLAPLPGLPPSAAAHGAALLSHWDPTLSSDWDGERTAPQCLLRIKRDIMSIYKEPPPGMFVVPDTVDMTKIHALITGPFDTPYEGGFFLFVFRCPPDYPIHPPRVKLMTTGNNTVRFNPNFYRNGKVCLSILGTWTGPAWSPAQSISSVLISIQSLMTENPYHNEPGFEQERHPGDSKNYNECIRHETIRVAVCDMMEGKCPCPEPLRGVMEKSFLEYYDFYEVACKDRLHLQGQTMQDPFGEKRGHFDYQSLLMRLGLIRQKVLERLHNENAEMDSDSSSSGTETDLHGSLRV
UniProt Q7Z7E8, sequence (whole entry, looked up): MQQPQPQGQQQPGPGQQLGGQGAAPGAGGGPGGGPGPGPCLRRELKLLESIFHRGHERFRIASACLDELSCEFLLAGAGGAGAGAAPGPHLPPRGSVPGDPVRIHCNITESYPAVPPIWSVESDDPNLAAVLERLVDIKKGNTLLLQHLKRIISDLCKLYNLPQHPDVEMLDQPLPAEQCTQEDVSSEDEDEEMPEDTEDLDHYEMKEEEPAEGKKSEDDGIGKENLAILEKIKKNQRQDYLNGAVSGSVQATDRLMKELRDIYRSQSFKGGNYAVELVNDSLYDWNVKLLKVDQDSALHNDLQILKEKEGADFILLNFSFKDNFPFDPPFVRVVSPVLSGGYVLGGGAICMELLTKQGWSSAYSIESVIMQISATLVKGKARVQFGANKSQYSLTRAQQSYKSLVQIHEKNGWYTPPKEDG
UniProt Q9Y385, sequence (whole entry, looked up): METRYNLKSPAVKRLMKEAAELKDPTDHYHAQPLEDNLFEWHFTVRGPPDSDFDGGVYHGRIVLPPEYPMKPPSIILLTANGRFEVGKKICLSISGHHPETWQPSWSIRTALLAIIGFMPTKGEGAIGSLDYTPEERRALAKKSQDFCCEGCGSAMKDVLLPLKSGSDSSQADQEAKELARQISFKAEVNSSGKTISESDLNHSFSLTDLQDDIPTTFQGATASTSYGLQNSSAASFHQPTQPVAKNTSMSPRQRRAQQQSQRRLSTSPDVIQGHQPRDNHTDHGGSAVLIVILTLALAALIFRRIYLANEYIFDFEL
UniProt P61081, sequence (whole entry, looked up): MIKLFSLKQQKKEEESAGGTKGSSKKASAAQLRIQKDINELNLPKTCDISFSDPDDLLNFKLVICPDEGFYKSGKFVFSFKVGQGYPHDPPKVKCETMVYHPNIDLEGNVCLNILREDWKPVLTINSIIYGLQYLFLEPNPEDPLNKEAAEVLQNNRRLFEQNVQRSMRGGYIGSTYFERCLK
UniProt Q9Y2X8, sequence (whole entry, looked up): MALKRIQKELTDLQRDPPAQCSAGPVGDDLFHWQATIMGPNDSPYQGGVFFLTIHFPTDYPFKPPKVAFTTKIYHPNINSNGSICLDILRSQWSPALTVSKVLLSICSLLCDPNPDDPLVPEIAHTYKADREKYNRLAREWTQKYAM
UniProt Q9NPD8, sequence (whole entry, looked up): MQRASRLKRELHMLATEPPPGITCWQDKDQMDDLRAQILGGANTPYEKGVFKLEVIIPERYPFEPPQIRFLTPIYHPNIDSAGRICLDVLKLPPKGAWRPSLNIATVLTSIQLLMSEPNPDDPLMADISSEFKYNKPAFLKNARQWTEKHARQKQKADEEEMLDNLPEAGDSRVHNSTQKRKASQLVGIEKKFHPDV

Sample 1
Target: Histone acetyltransferase KAT6A, both winged helices, GST fusion (KAT6A, Homo sapiens, UniProt Q92794, residues 1-181)
Technique: protein binding microarray
Molecule type: double-stranded DNA, one strand shown
Matrix: in vitro
Concentration: not given
Setting: 8-mer, flanks averaged, mean of 2 arrays, mostly near background
Baseline: not given
Direction: higher = stronger binding
Target sequence (chain): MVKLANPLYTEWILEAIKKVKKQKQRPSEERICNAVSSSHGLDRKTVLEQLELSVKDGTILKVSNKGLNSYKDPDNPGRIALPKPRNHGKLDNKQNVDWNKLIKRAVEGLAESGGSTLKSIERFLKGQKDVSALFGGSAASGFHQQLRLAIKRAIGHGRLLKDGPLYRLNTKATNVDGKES
Strand	E-score
ACCGCCAC	0.0827
CAGCGTCG	0.215
CTTGGTAC	-0.0494
GCGCCAAC	0.234
CTGGGGTC	-0.283
CACTGATC	-0.149
CGTCGGAG	0.217
AATCGGGC	0.0334
AGTGGGGG	-0.281
ATGAGGAA	-0.252
CTTTCCCC	-0.124
GGTGAAGA	-0.0463
GACCTTCA	-0.0515
GTAGACGA	-0.0266
AAACGGCC	0.256
CGAAGATC	-0.00579
ACCAAAGA	-0.138
CTTCCACA	-0.163
AGTTTTTA	-0.0759
TAAGCGAA	0.0626
AAGTGTGA	-0.21
TAGCGCGA	0.291
TACTCAAA	-0.0325

Sample 2
Target: Centromere-binding protein 1, full length, His-tagged (CBF1, Saccharomyces cerevisiae, UniProt P17106, residues 1-351)
UniProt P17106, sequence (whole entry, looked up): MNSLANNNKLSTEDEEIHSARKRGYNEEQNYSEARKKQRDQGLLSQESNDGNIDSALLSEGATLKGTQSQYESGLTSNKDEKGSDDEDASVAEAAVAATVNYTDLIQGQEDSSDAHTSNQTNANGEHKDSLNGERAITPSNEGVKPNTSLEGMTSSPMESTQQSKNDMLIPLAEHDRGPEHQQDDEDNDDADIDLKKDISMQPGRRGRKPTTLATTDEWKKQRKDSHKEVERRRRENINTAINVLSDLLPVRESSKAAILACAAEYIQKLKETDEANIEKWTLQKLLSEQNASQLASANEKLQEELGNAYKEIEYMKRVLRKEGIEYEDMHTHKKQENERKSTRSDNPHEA
Technique: competition protein-binding microarray
Molecule type: double-stranded DNA, one strand shown
Matrix: in vitro
Concentration: 2 µM
Setting: whole 60-bp probe, lowest competitor level
With: Pho4 competitor, 0.05 µM
Direction: higher = stronger binding
Strand	fluorescence intensity [a.u.]
TTCTTACTAAAATGTAGCGTGCATCCTTATAGGGCTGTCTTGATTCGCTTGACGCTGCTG	83.8
GACCAGAAACGTCGTCATGTGGCCAAAGTCGGGCCAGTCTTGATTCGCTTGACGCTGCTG	240
GGGTACGGACCCCGTCACGTAAGACGATGCCGATGCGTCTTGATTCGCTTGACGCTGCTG	62.9
AAATTACTAAGTTGCGTGGTGGGTGACGCCGTATGAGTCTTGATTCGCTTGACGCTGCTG	67.6
TCGTTTAGAGTTATCATCGTGCCAGGACCCAGTGATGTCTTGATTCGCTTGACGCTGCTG	92.1
TGAGTTCTCCTTCATTGCGTGATGGATCATCAAGTGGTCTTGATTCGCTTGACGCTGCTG	76.4
GATTCCATTCGATTCCATGTGATGATTCCATTCTATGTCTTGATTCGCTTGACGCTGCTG	211
AAGTGCCGTTTCTAAAACGTGGTCGAATAATCCTCAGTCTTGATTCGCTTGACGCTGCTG	176
GTCTTGTCTCATTGACACGTGTTTTTCCCCACTTCAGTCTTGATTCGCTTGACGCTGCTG	1390
GTCCTTTGGTGGTTCAACGTGAGTCAAGTCCTTGAAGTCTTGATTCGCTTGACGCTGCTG	92.7
CTTTCCCGATCTTGTCACGCCACTTTAGCACATTTGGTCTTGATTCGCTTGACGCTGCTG	349
CTTTGTCTCCATTGCGGCGTGCTAATTCTTCTACTAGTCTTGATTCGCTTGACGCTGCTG	81.9
TGTGGGGGTAACCATCACGGCGTCGCACAACCCATAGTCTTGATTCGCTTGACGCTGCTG	62.9
GAAATAAAGGGAACACACGTGAAATTGAAGGACAGCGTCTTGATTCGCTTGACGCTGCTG	754
GGAGAAGTTACTGTACACATGAAAACACGAATAACTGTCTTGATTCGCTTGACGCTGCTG	95
AAAGCGGTAATTTGCACTGTGGGTGCAGATATCTATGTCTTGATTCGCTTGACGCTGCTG	85.5
GTCTTGTCTCATTGGAATGTGGGTGTCCCCACTTCAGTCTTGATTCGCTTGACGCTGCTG	73.5
CCAAGTTAGAAGAAACATGTGACGCCATTTCTGCGGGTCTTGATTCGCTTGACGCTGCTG	1100

Sample 3
Molecule: B1 (MKRN2 RING domain)
Technique: yeast two-hybrid
Matrix: yeast
Setting: mostly zero background
Baseline: not given
Direction: higher = stronger interaction
B1: MKRN2 RING domain (UniProt Q9H000); chain FAFQASQDKVCSICMEVILEKASASERRFGILSNCNHTYCLSCIRQWRCAKQFENPIIKSCPECRVISEFVIPSV
target	lacZ reporter activity
UBE2J1 UBC core domain (UniProt Q9Y385)	0
UBE2C UBC core domain (UniProt O00762)	0
UBE2T UBC core domain (UniProt Q9NPD8)	0
UBE2R2 UBC core domain (UniProt Q712K3)	0
UBE2D4 UBC core domain (UniProt Q9Y2X8)	0
UBE2Q1 UBC core domain (UniProt Q7Z7E8)	0
UBE2D2 UBC core domain (UniProt P62837)	0
UBE2M UBC core domain (UniProt P61081)	0
UBE2I UBC core domain (UniProt P63279)	0
UBE2Z UBC core domain (UniProt Q9H832)	0

Sample 4
Target: CCNA2, cyclin fold, Cln2 fusion (human)
Technique: yeast growth competition, sequencing
Matrix: yeast
Setting: strong parent motif
Baseline: not given
Direction: higher = stronger binding
Parent: RBL1 docking peptide (human); GSAKRRLFGEDPP
Variant	normalised enrichment score
GGAKRRLFGEDPP [S2G]	6.26
GKAKRRLFGEDPP [S2K]	6.45
GSAKRRLFGEDLP [P12L]	5.4
GSADRRLFGEDPP [K4D]	-0.234
GSAKRRLFGEDNP [P12N]	5.43
GSAKRALFGEDPP [R6A]	3.74
GSAKRRLFLEDPP [G9L]	5.28
GSAKRRLFAEDPP [G9A]	7.39
GSAKRRPFGEDPP [L7P]	1.15
GSAYRRLFGEDPP [K4Y]	3.49
GSAKRRLFGEPPP [D11P]	4.54
GSAKRRHFGEDPP [L7H]	-0.344
GSYKRRLFGEDPP [A3Y]	4
GDAKRRLFGEDPP [S2D]	3.35
GSAKRRLQGEDPP [F8Q]	0.359
GSFKRRLFGEDPP [A3F]	4.41

Sample 5
Target: ABI1, truncated, D143A, DHFR fusion (Arabidopsis thaliana)
Technique: DHFR PCA, deep sequencing
Matrix: yeast
Setting: methotrexate growth selection, single substitutions
With: (+)-ABA 0.032 µM
Baseline: wild-type fitted maximum
Direction: higher = stronger binding
Parent: PYL1, truncated, DHFR fusion (Arabidopsis thaliana); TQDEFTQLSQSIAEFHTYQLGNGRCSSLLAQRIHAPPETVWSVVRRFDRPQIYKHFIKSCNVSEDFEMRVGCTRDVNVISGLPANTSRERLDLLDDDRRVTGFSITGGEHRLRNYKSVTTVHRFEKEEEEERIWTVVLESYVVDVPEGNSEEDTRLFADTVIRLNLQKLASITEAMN
Variant	relative binding score [%]
K126W	14.7
E67P	4.15
K54T	-5.72
Y115K	5.07
Q167T	8.7
L166A	3.59
E139V	4.24
I162A	6.67
G81Q	6.76
S104G	0.363
E64M	-2.18
R24W	0.252
E127S	38.8
C72I	8.28
V121E	-8.56
E128N	39.7
R49L	1.24
K116T	12.9
Q10W	5.06
G148W	2.74
K54Y	-0.519
D48I	-0.53
G108K	-6.78
S104E	0.0402
D48T	4.23

For quick reference, copied from above (sample 4):
Variant	normalised enrichment score
GSAKRRLFAEDPP [G9A]	7.39
GSAKRRPFGEDPP [L7P]	1.15
GSAYRRLFGEDPP [K4Y]	3.49
GSAKRRLFGEPPP [D11P]	4.54
GSAKRRHFGEDPP [L7H]	-0.344
GSYKRRLFGEDPP [A3Y]	4
GDAKRRLFGEDPP [S2D]	3.35
GSAKRRLQGEDPP [F8Q]	0.359
